Assay results pooled from the literature.
Protocols differ between the studies behind these lines. ± marks the error that the study gave.

| SMILES | assay | test system | conditions | how to read | endpoint | result |
| --- | --- | --- | --- | --- | --- | --- |
| N=C(N)NCCC[C@@H]1NC(=O)[C@H](CCCCNC(=O)CCOCCOCCOCCOCCNC(=O)CN2CCN(CC(=O)O)CCN(CC(=O)O)CCN(CC(=O)O)CC2)NC(=O)[C@@H](Cc2ccccc2)NC(=O)[C@H](CC(=O)O)NC(=O)CNC1=O [indium-111 labelled] |  | female athymic nude mice, blood | intravenous, 3 µCi, 4 h, U-87 MG glioma xenograft |  | tissue uptake | 0.29 ± 0.02 %ID/g |
| C[C@H](NC(=O)CNC(=O)[C@H](CCC(=O)O)NC(=O)[C@H](CCC(=O)O)NC(=O)[C@H](CC(=O)O)NC(=O)[C@@H]1CCCN1C(=O)[C@H](Cc1ccccc1)NC(=O)[C@H](CS)NC(=O)[C@H](Cc1ccc(O)cc1)NC(=O)CCCNC(=O)CNC(=O)CNC(=O)[C@@H](C)NC(=O)CN)C(=O)N[C@@H](CS)C(=O)N[C@@H](Cc1ccc(O)cc1)C(N)=O [technetium-99m labelled] | radio-HPLC | human serum | 2 h, 37 °C, serum mix 1:10 v/v |  | radiochemical purity | 93.4 ± 1.78% |
| CC(C)C[C@H](NC(=O)[C@@H]1CCCN1C(=O)[C@H](CCCCN)NC(=O)[C@@H](N)CO)C(=O)N1CCC[C@H]1C(=O)N[C@@H](CCC(=O)O)C(=O)N[C@H](C(=O)N[C@H](C(=O)N[C@@H](CC(=O)O)C(=O)N[C@@H](CCC(=O)O)C(=O)N[C@@H](Cc1ccc(O)cc1)C(=O)N[C@@H](Cc1cn(CCOCCOCCOCCNC(=O)CCc2ccc(O)c(CN(CCN(CC(=O)O)Cc3cc(CCC(=O)NCCCC[C@H](NC(=O)N[C@@H](CCC(=O)O)C(=O)O)C(=O)O)ccc3O)CC(=O)O)c2)nn1)C(=O)O)[C@@H](C)O)C(C)C [gallium-68 labelled] |  | NMRI nu/nu mice, LNCaP tumour, blood | 10 MBq, high molar activity |  | standardized uptake value | 0.16 g/g |
| CCCC[C@H](NC(=O)CCCCCCCNC(=O)c1ccc(NN)nc1)C(=O)N[C@H]1CC(=O)NCCCC[C@@H](C(N)=O)NC(=O)[C@H](Cc2c[nH]c3ccccc23)NC(=O)[C@H](CCCNC(=N)N)NC(=O)[C@@H](Cc2ccccc2)NC(=O)[C@H](Cc2c[nH]cn2)NC1=O [technetium-99m labelled] |  | B16/F1 melanoma-bearing C57 mice, kidney | dose not given, 2 h post-injection, together with: L-lysine 12 mg |  | renal uptake reduction | 33% |
| N=C(N)NCCC[C@@H]1NC(=O)[C@H](CCCCNC(=O)CCOCCOCCOCCOCCNC(=O)CC[C@H](NC(=O)[C@H](CCCCNC(=O)c2ccc(NN)nc2)NC(=O)c2ccc(NN)nc2)C(=O)NCCOCCOCCOCCOCCC(=O)NCCCC[C@@H]2NC(=O)[C@@H](Cc3ccccc3)NC(=O)[C@H](CC(=O)O)NC(=O)CNC(=O)[C@H](CCCNC(=N)N)NC2=O)NC(=O)[C@@H](Cc2ccccc2)NC(=O)[C@H](CC(=O)O)NC(=O)CNC1=O [technetium-99m labelled] |  | female athymic nude mice | intravenous, 1 h, U-87 MG glioma xenograft | relative to: tumour over liver | tissue ratio | 3.66 ± 0.13 |
| CCCC[C@H](NC(=O)CNC(=O)CNC(=O)c1ccc(NN)nc1)C(=O)N[C@H]1CC(=O)NCCCC[C@@H](C(N)=O)NC(=O)[C@H](Cc2c[nH]c3ccccc23)NC(=O)[C@H](CCCNC(=N)N)NC(=O)[C@@H](Cc2ccccc2)NC(=O)[C@H](Cc2c[nH]cn2)NC1=O [technetium-99m labelled] |  | C57 mouse, B16/F1 melanoma, liver | 2 h, together with: L-lysine 12 mg |  | uptake | 0.35 ± 0.05 %ID/g |
| CCCC[C@H](NC(=O)CNC(=O)CNC(=O)CNC(=O)c1ccc(NN)nc1)C(=O)N[C@H]1CC(=O)NCCCC[C@@H](C(N)=O)NC(=O)[C@H](Cc2c[nH]c3ccccc23)NC(=O)[C@H](CCCNC(=N)N)NC(=O)[C@@H](Cc2ccccc2)NC(=O)[C@H](Cc2c[nH]cn2)NC1=O [technetium-99m labelled] |  | C57 mouse, B16/F1 melanoma, brain | intravenous, 2 h |  | uptake | 0.05 ± 0.03 %ID/g |
| N=C(N)NCCC[C@@H]1NC(=O)[C@H](CCCCNC(=O)CNC(=O)CNC(=O)CNC(=O)CC[C@H](NC(=O)CCOCCOCCOCCOCCNC(=O)CC[C@H](NC(=O)CN2CCN(CC(=O)O)CCN(CC(=O)O)CCN(CC(=O)O)CC2)C(=O)NCCOCCOCCOCCOCCC(=O)N[C@@H](CCC(=O)NCC(=O)NCC(=O)NCC(=O)NCCCC[C@@H]2NC(=O)[C@@H](Cc3ccccc3)NC(=O)[C@H](CC(=O)O)NC(=O)CNC(=O)[C@H](CCCNC(=N)N)NC2=O)C(=O)NCC(=O)NCC(=O)NCC(=O)NCCCC[C@@H]2NC(=O)[C@@H](Cc3ccccc3)NC(=O)[C@H](CC(=O)O)NC(=O)CNC(=O)[C@H](CCCNC(=N)N)NC2=O)C(=O)NCC(=O)NCC(=O)NCC(=O)NCCCC[C@@H]2NC(=O)[C@@H](Cc3ccccc3)NC(=O)[C@H](CC(=O)O)NC(=O)CNC(=O)[C@H](CCCNC(=N)N)NC2=O)NC(=O)[C@@H](Cc2ccccc2)NC(=O)[C@H](CC(=O)O)NC(=O)CNC1=O [indium-111 labelled] |  | female athymic nude mice, blood | intravenous, 3 µCi, 24 h, U-87 MG glioma xenograft |  | tissue uptake | 0.02 %ID/g |
| COc1cc(OC)cc(C2=C3c4ccccc4C(c4ccc(NC(=S)NCCOCCOCCOCCC(=O)N[C@@H](CC(C)C)C(=O)N[C@@H](C)C(=O)N[C@@H](CCCNC(=N)N)C(=O)N[C@@H](CC(C)C)C(=O)N[C@@H](CC(C)C)C(=O)N[C@H](C(N)=O)[C@@H](C)O)cc4)=[N+]3[B-](F)(F)n3c2c2ccccc2c3-c2ccc(NC(=S)NCCNC(=O)CCCC[C@@H]3SC[C@@H]4NC(=O)N[C@@H]43)cc2)c1 |  | DMSO |  |  | absorption maximum | 650 nm |
| Cc1cc(-c2ccc(NC(=O)[C@H](CCCCNC(=O)CCOCCOCCC(=O)N[C@H](Cc3ccccc3)C(=O)N[C@H]3CSSC[C@@H](C(=O)N[C@H](C(=O)O)[C@@H](C)O)NC(=O)[C@H]([C@@H](C)O)NC(=O)[C@H](CCCCN)NC(=O)[C@@H](Cc4c[nH]c5ccccc45)NC(=O)[C@H](Cc4ccc(O)cc4)NC3=O)NC(=O)CN3CCN(CC(=O)O)CCN(CC(=O)O)CCN(CC(=O)O)CC3)c(C)c2)ccc1N=Nc1ccc2c(S(=O)(=O)O)cc(S(=O)(=O)O)c(N)c2c1O [lutetium-177 labelled] |  | metastatic neuroendocrine tumour patients | dose escalation |  | maximum tolerated dose | 3.33 GBq/cycle |
| N=C(N)NCCC[C@@H]1NC(=O)[C@H](CCCCNC(=O)CCOCCOCCOCCOCCNC(=O)CC[C@H](NC(=O)CCOCCOCCOCCOCCNC(=O)CC[C@H](NC(=O)CN2CCN(CC(=O)O)CCN(CC(=O)O)CCN(CC(=O)O)CC2)C(=O)NCCOCCOCCOCCOCCC(=O)N[C@@H](CCC(=O)NCCOCCOCCOCCOCCC(=O)NCCCC[C@@H]2NC(=O)[C@@H](Cc3ccccc3)NC(=O)[C@H](CC(=O)O)NC(=O)CNC(=O)[C@H](CCCNC(=N)N)NC2=O)C(=O)NCCOCCOCCOCCOCCC(=O)NCCCC[C@@H]2NC(=O)[C@@H](Cc3ccccc3)NC(=O)[C@H](CC(=O)O)NC(=O)CNC(=O)[C@H](CCCNC(=N)N)NC2=O)C(=O)NCCOCCOCCOCCOCCC(=O)NCCCC[C@@H]2NC(=O)[C@@H](Cc3ccccc3)NC(=O)[C@H](CC(=O)O)NC(=O)CNC(=O)[C@H](CCCNC(=N)N)NC2=O)NC(=O)[C@@H](Cc2ccccc2)NC(=O)[C@H](CC(=O)O)NC(=O)CNC1=O [indium-111 labelled] |  | female athymic nude mice, intestine | intravenous, 3 µCi, 0.5 h, U-87 MG glioma xenograft |  | tissue uptake | 11.6 ± 2.52 %ID/g |
| CSCC[C@H](NC(=O)[C@H](CC(C)C)NC(=O)[C@H](Cc1c[nH]cn1)NC(=O)CNC(=O)[C@@H](NC(=O)[C@H](C)NC(=O)[C@H](Cc1c[nH]c2ccccc12)NC(=O)[C@H](CCC(N)=O)NC(=O)CCCCCNC(=O)CNC(=O)CNC(=O)CNC(=O)CSC(C)=O)C(C)C)C(N)=O [technetium-99m labelled] |  | Swiss mouse, kidney | intravenous, 18.5 MBq, 90 min |  | tissue uptake | 0.62 ± 0.01 %ID/g |

Excerpt of the above:
| SMILES | assay | test system | conditions | how to read | endpoint | result |
| --- | --- | --- | --- | --- | --- | --- |
| CC(C)C[C@H](NC(=O)[C@@H]1CCCN1C(=O)[C@H](CCCCN)NC(=O)[C@@H](N)CO)C(=O)N1CCC[C@H]1C(=O)N[C@@H](CCC(=O)O)C(=O)N[C@H](C(=O)N[C@H](C(=O)N[C@@H](CC(=O)O)C(=O)N[C@@H](CCC(=O)O)C(=O)N[C@@H](Cc1ccc(O)cc1)C(=O)N[C@@H](Cc1cn(CCOCCOCCOCCNC(=O)CCc2ccc(O)c(CN(CCN(CC(=O)O)Cc3cc(CCC(=O)NCCCC[C@H](NC(=O)N[C@@H](CCC(=O)O)C(=O)O)C(=O)O)ccc3O)CC(=O)O)c2)nn1)C(=O)O)[C@@H](C)O)C(C)C [gallium-68 labelled] |  | NMRI nu/nu mice, LNCaP tumour, blood | 10 MBq, high molar activity |  | standardized uptake value | 0.16 g/g |
| N=C(N)NCCC[C@@H]1NC(=O)[C@H](CCCCNC(=O)CCOCCOCCOCCOCCNC(=O)CC[C@H](NC(=O)CCOCCOCCOCCOCCNC(=O)CC[C@H](NC(=O)CN2CCN(CC(=O)O)CCN(CC(=O)O)CCN(CC(=O)O)CC2)C(=O)NCCOCCOCCOCCOCCC(=O)N[C@@H](CCC(=O)NCCOCCOCCOCCOCCC(=O)NCCCC[C@@H]2NC(=O)[C@@H](Cc3ccccc3)NC(=O)[C@H](CC(=O)O)NC(=O)CNC(=O)[C@H](CCCNC(=N)N)NC2=O)C(=O)NCCOCCOCCOCCOCCC(=O)NCCCC[C@@H]2NC(=O)[C@@H](Cc3ccccc3)NC(=O)[C@H](CC(=O)O)NC(=O)CNC(=O)[C@H](CCCNC(=N)N)NC2=O)C(=O)NCCOCCOCCOCCOCCC(=O)NCCCC[C@@H]2NC(=O)[C@@H](Cc3ccccc3)NC(=O)[C@H](CC(=O)O)NC(=O)CNC(=O)[C@H](CCCNC(=N)N)NC2=O)NC(=O)[C@@H](Cc2ccccc2)NC(=O)[C@H](CC(=O)O)NC(=O)CNC1=O [indium-111 labelled] |  | female athymic nude mice, intestine | intravenous, 3 µCi, 0.5 h, U-87 MG glioma xenograft |  | tissue uptake | 11.6 ± 2.52 %ID/g |
